Experimental data gathered from unrelated publications.
A part holds a random share of what one study measured.
Chain of UniProt Q9NWZ3 (whole entry, looked up): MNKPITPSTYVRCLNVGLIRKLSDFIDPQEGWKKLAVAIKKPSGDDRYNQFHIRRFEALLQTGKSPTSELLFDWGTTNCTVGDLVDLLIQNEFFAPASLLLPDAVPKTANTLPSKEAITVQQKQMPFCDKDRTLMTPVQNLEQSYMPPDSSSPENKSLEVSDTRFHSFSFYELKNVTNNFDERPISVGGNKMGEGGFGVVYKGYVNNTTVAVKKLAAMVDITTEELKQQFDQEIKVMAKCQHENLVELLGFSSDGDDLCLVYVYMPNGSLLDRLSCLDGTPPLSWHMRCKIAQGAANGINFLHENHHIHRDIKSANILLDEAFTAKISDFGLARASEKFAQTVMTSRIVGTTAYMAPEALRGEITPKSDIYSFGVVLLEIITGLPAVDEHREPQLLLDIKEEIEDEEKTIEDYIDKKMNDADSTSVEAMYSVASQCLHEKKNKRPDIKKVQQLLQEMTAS
Chain of UniProt P29320 (whole entry, looked up): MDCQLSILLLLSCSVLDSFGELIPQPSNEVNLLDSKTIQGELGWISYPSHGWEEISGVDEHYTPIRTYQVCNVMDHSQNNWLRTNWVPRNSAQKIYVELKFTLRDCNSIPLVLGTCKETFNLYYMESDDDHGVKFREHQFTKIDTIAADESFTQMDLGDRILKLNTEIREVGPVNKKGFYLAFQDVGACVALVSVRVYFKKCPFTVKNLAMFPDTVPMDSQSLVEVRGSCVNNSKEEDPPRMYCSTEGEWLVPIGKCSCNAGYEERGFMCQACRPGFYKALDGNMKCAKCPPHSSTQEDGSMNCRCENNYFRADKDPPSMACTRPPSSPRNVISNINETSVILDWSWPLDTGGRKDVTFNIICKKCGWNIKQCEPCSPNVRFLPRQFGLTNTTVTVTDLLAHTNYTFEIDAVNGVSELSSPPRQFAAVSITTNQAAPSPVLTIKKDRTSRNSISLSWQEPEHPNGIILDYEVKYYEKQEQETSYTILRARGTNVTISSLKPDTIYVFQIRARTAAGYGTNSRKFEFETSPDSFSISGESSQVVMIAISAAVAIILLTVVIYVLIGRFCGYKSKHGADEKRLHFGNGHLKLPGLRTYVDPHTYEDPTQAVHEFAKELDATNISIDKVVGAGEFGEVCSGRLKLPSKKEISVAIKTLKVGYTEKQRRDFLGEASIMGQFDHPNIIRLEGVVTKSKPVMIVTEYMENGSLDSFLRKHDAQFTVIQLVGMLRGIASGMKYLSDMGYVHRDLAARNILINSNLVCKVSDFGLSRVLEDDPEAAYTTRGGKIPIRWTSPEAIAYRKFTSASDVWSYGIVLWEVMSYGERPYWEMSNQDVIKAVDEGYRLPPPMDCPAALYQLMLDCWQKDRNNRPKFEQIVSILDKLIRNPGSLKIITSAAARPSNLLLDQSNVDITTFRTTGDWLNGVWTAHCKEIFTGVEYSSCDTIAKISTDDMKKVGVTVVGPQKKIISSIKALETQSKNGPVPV
Chain of UniProt P21127 (whole entry, looked up): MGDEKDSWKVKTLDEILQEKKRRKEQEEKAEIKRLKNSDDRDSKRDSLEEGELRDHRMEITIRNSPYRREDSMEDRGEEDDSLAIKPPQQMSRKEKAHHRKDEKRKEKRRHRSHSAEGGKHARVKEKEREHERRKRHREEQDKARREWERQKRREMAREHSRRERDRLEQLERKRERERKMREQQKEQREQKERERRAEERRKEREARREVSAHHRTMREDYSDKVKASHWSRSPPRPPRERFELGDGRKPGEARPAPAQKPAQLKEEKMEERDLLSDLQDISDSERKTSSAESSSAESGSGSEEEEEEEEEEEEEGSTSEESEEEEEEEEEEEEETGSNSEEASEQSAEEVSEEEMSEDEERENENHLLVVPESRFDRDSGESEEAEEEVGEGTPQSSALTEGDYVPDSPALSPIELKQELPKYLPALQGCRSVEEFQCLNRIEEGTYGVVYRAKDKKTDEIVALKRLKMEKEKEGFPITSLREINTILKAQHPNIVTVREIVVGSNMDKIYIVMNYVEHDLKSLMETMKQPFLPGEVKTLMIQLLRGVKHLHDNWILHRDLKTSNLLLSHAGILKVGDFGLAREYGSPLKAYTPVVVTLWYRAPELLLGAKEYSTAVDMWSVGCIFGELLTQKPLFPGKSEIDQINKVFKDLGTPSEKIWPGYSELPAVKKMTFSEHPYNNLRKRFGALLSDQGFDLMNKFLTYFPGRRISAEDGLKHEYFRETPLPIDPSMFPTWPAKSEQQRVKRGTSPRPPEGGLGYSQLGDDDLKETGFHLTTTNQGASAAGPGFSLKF
Chain of UniProt P45984 (whole entry, looked up): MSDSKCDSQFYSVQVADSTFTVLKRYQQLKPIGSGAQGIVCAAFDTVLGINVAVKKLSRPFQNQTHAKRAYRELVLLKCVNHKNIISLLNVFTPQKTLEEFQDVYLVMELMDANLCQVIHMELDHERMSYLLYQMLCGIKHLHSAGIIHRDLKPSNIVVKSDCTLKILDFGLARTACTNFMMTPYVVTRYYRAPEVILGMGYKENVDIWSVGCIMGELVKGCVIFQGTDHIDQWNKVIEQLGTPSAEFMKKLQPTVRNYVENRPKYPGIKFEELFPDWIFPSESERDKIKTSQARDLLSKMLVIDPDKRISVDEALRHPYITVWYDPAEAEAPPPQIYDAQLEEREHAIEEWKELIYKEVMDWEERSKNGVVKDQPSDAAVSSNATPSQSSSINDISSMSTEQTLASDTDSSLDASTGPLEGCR
Chain of UniProt P04049 (whole entry, looked up): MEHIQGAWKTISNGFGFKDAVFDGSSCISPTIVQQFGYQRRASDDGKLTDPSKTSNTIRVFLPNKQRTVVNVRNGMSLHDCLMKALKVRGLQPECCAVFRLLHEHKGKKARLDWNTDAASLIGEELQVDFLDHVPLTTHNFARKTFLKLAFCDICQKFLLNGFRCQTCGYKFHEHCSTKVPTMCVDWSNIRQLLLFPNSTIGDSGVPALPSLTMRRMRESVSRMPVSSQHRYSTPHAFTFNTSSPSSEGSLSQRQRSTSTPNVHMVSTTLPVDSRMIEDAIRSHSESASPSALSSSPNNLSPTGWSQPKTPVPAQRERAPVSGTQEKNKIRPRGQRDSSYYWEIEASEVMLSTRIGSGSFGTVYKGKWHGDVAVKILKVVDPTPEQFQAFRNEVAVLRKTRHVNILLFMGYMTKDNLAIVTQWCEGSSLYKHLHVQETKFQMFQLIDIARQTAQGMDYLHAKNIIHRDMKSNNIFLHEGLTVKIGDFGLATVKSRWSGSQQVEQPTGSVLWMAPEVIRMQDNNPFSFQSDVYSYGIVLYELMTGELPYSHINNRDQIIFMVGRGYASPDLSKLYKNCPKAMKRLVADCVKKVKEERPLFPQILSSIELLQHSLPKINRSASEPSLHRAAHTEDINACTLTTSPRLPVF
Chain of UniProt P30530 (whole entry, looked up): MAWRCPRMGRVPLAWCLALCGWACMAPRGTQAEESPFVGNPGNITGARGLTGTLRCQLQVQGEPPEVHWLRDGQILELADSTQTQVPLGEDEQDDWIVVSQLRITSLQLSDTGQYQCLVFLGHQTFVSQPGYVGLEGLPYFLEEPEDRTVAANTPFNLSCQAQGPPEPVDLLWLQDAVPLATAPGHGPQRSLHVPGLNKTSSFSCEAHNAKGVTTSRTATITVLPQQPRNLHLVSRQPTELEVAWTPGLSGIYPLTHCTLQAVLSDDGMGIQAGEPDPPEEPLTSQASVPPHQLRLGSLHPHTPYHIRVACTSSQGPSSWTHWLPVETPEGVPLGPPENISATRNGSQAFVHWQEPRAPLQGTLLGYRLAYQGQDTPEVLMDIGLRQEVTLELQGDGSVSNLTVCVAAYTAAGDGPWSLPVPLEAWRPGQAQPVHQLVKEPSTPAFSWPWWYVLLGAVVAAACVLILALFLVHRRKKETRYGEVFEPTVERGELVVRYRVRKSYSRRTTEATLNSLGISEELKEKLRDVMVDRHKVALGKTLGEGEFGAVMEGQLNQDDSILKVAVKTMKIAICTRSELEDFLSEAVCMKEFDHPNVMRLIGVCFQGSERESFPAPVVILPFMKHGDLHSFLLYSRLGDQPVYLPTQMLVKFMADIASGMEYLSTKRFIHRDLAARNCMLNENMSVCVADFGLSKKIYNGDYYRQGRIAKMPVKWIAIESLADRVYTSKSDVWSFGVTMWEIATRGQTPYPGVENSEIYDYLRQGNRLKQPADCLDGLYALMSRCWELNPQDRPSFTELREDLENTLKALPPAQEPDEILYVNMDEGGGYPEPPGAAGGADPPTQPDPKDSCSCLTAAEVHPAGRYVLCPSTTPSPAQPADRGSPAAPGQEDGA
Chain of UniProt P11309 (whole entry, looked up): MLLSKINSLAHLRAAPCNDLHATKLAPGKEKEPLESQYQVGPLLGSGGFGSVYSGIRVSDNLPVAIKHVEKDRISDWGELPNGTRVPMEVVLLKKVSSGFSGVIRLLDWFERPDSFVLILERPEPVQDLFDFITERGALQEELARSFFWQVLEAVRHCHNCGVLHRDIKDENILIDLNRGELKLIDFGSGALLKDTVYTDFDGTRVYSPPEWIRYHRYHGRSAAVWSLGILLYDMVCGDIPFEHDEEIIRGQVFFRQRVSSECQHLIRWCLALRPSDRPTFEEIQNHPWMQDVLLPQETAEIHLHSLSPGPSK
Chain of UniProt Q9Y243 (whole entry, looked up): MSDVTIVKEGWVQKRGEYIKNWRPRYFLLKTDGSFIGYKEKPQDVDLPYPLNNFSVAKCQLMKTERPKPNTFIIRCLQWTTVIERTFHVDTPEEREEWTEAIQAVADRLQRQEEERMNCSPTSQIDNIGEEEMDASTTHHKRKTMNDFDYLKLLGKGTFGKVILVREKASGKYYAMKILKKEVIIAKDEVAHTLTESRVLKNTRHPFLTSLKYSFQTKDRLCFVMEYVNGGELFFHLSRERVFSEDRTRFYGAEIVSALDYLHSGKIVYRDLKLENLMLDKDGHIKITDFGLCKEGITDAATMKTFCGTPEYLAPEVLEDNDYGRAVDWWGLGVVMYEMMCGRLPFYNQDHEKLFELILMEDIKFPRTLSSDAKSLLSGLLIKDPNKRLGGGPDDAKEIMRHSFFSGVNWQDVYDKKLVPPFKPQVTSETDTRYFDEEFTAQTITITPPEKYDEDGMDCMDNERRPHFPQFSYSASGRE

Series 1
Cell line: HaCaT
Concentration: 100 µM
Time: 36 h
Measurement: viability
CC(=O)[C@@]1(O)CC[C@H]2[C@@H]3CCC4=CC(=O)CC[C@]4(C)[C@H]3CC[C@@]21C: 89.1%
CCOC(=O)[C@H](CCc1ccccc1)N[C@@H](C)C(=O)N1Cc2ccccc2C[C@H]1C(=O)O: 95.7%
CCN(Cc1ccncc1)C(=O)C(CO)c1ccccc1 (stereo not shown): 92.3%
COc1ccc2cc3[n+](cc2c1OC)CCc1cc2c(cc1-3)OCO2: 30%
O=C(OC1C[C@@H]2CC3C[C@H](C1)N2CC3=O)c1c[nH]c2ccccc12 (stereo partly shown): 40.4%
CCC[C@H](N[C@@H](C)C(=O)N1[C@H](C(=O)O)C[C@@H]2CCCC[C@@H]21)C(=O)OCC: 97.5%
Oc1ccc(O)cc1: 8.19%
Nc1nc(NC2CC2)c2ncn([C@H]3C=C[C@@H](CO)C3)c2n1: 95.1%
C[C@@H](c1ncncc1F)[C@](O)(Cn1cncn1)c1ccc(F)cc1F: 98%
CN1CCc2c(c3ccccc3n2Cc2ccccc2)C1: 85.7%
CCCCCOC(=O)Nc1nc(=O)n([C@@H]2O[C@H](C)[C@@H](O)[C@H]2O)cc1F: 44.5%
CC(=O)[C@H]1CC[C@H]2[C@@H]3CCC4=CC(=O)CC[C@]4(C)[C@H]3CC[C@]12C: 32%
COC(=O)C1=C(C)NC(C)=C(C(=O)OC(C)(C)CN(C)CCC(c2ccccc2)c2ccccc2)C1c1cccc([N+](=O)[O-])c1 (stereo not shown): 91%
CC#C[C@]1(O)CC[C@H]2[C@@H]3CCC4=CC(=O)CCC4=C3[C@@H](c3ccc(N(C)C)cc3)C[C@@]21C: 19.7%
CNCc1cc(-c2ccccc2F)n(S(=O)(=O)c2cccnc2)c1: 61.9%

Series 2
Organism: Sarcocystis neurona
Read-out: parasite growth
Concentration: 10 µM
Time: 96 h
Setting: first screen
Reference: untreated
Measurement: log2 fold change
CCOC(=O)[C@@]1(CCCCCCOc2ccc(Cl)cc2)CO1: 0.25
CC(=O)OCC(=O)[C@@]1(O)CC[C@H]2[C@@H]3CCC4=CC(=O)CC[C@]4(C)[C@H]3[C@@H](O)C[C@@]21C: 0.0454
CN(C)[C@@H]1C(O)=C(C(N)=O)C(=O)[C@@]2(O)C(O)=C3C(=O)c4c(O)cccc4[C@@](C)(O)[C@H]3[C@H](O)[C@@H]12: -0.21
COc1ccccc1OCC(O)CN1CCN(CC(=O)Nc2c(C)cccc2C)CC1 (stereo not shown): -0.17
Cc1ccsc1C(=CCCN1CCC[C@@H](C(=O)O)C1)c1sccc1C: 0.08
COc1ccccc1OCCNCC(O)COc1cccc2[nH]c3ccccc3c12 (stereo not shown): -0.9
CCN(CC)CCOC(=O)c1ccc(N)cc1: 0.29
CN(C)CCCN1c2ccccc2Sc2ccc(Cl)cc21: 0.00388
COC1=CC(=O)C[C@@H](C)[C@]12Oc1c(Cl)c(OC)cc(OC)c1C2=O: 0.53
C#C[C@]1(O)CC[C@H]2[C@@H]3[C@H](C)CC4=C(CCC(=O)C4)[C@H]3CC[C@@]21C: -0.14
CCCCc1nc(Cl)c(CO)n1Cc1ccc(-c2ccccc2-c2nn[nH]n2)cc1: 0.14
CCc1c(C)[nH]c2c1C(=O)C(CN1CCOCC1)CC2 (stereo not shown): 0.21
CO[C@H]1O[C@@H]2O[C@@]3(C)CC[C@H]4[C@H](C)CC[C@@H]([C@H]1C)[C@@]24OO3: -1.7
Cc1cccc(C)c1NC(=O)C(C)N (stereo not shown): -0.064
COc1cccc2c1C(=O)c1c(O)c3c(c(O)c1C2=O)C[C@@](O)(C(C)=O)C[C@@H]3O[C@H]1C[C@H](N)[C@H](O)[C@H](C)O1: -5.34

Series 3
SMILES: O=C1NC(=O)C(c2cn(-c3ccccc3)nc2-c2ccc(F)cc2)N1 (stereo not shown)
Action: inhibitor
Concentration: 5 µM
Measurement: log2 fold change
TSSK2 (Homo sapiens, UniProt Q96PF2); kinase activity; cell-based kinome screen; reference: vehicle: -0.256
Platelet-derived growth factor receptor beta, with CDC37 (PDGFRB, Homo sapiens, UniProt P09619); kinase–CDC37 interaction; kinome plate 3@D06; reference: vehicle: 0.154
PKMYT1 (Homo sapiens, UniProt Q99640); kinase–CDC37 interaction; kinome plate 5@B03; reference: vehicle: -0.085
BMPR1A (Homo sapiens, UniProt P36894); cell-based kinome profiling; human cells; reference: vehicle control: -0.274
BMX (Homo sapiens, UniProt P51813); kinase–CDC37 interaction; kinome plate 3@D10; reference: vehicle: -0.084
PIM1 (Homo sapiens, UniProt P11309); kinase-CDC37 interaction; human cells; reference: vehicle: -0.14
RAF1 (Homo sapiens, UniProt P04049); kinase activity; cell-based kinome screen; reference: vehicle: -0.276
PRKAA1 (Homo sapiens, UniProt Q13131); kinase–CDC37 interaction; kinome plate 4@G07; reference: vehicle: 0.273
CDK11B (Homo sapiens, UniProt P21127); human cells; reference: vehicle: -0.156

Series 4
SMILES: COc1cc(-c2cn(C3CCc4c(F)cccc4N(CC(F)(F)F)C3=O)nn2)ccc1-n1cnc(C)c1 (stereo not shown)
Read-out: cell-free assay
Method: competition with immobilised ligand
Concentration: 1 µM
Measurement: remaining binding
GRK4 (Homo sapiens, UniProt P32298): 100%
PIM3 (Homo sapiens, UniProt Q86V86): 90%
ULK3 (Homo sapiens, UniProt Q6PHR2): 63%
IRAK4 (Homo sapiens, UniProt Q9NWZ3): 100%
PAK6 (Homo sapiens, UniProt Q9NQU5): 100%
Tyrosine-protein kinase ABL1, phosphorylated (ABL1, Homo sapiens, UniProt P00519, F317L): 78%
Cyclin-dependent kinase 4, with cyclin D1 (CDK4, Homo sapiens, UniProt P11802): 100%
NIM1K (Homo sapiens, UniProt Q8IY84): 78%
PRKD1 (Homo sapiens, UniProt Q15139): 100%
AKT3 (Homo sapiens, UniProt Q9Y243): 100%
RET (Homo sapiens, UniProt P07949): 84%
MAPK9 (Homo sapiens, UniProt P45984): 92%
SIK3 (Homo sapiens, UniProt Q9Y2K2): 100%
Tyrosine-protein kinase JAK2, JH1 (JAK2, Homo sapiens, UniProt O60674): 100%
Tyrosine-protein kinase JAK1, JH1 (JAK1, Homo sapiens, UniProt P23458): 100%
AXL (Homo sapiens, UniProt P30530): 98%
EPHA3 (Homo sapiens, UniProt P29320): 97%
PIK3CA (Homo sapiens, UniProt P42336): 94%
PIK3CG (Homo sapiens, UniProt P48736): 84%
GRK3 (Homo sapiens, UniProt P35626): 100%
MTOR (Homo sapiens, UniProt P42345): 100%
FGFR3 (Homo sapiens, UniProt P22607, G697C): 100%
MAPK12 (Homo sapiens, UniProt P53778): 79%
NEK1 (Homo sapiens, UniProt Q96PY6): 100%
TLK1 (Homo sapiens, UniProt Q9UKI8): 100%

Some of these lines once more (series 1):
CCC[C@H](N[C@@H](C)C(=O)N1[C@H](C(=O)O)C[C@@H]2CCCC[C@@H]21)C(=O)OCC: 97.5%
CC(=O)[C@@]1(O)CC[C@H]2[C@@H]3CCC4=CC(=O)CC[C@]4(C)[C@H]3CC[C@@]21C: 89.1%
CCN(Cc1ccncc1)C(=O)C(CO)c1ccccc1 (stereo not shown): 92.3%
CCOC(=O)[C@H](CCc1ccccc1)N[C@@H](C)C(=O)N1Cc2ccccc2C[C@H]1C(=O)O: 95.7%
Nc1nc(NC2CC2)c2ncn([C@H]3C=C[C@@H](CO)C3)c2n1: 95.1%
